# Measurements gathered from unrelated publications.
# Numbered parts are unrelated; each lists some results of a single study.

# Set 1
# Target: Centromere-binding protein 1, full length, His-tagged (CBF1, Saccharomyces cerevisiae, UniProt P17106, residues 1-351)
# Sequence of UniProt P17106 (whole entry, looked up): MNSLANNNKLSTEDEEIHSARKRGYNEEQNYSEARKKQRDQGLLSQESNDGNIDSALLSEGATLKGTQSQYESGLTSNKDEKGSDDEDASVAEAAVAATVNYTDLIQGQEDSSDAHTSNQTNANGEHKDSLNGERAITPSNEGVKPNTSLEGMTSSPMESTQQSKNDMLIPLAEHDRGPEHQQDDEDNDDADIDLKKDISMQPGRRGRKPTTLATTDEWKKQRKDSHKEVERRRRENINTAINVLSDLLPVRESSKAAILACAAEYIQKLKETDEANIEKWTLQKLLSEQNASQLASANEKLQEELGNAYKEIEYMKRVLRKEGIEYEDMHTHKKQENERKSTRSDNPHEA
# Method: competition protein-binding microarray
# Molecule type: double-stranded DNA, one strand shown
# Sample: in vitro
# Concentration: 2 µM
# Notes: whole 60-bp probe, lowest competitor level
# Together with: Pho4 competitor, 0.05 µM
# Reading: higher = stronger binding
Oligonucleotide,fluorescence intensity [a.u.]
AAAGCGGTAATTTGCAACGTGGGTGCAGATATCTATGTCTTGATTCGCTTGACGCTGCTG,101
CCAAGCGTTCAAGTCAGTGTGACGGACACCAGAGTAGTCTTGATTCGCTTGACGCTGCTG,75.3
TGTTACTGGGACAACGGCGTGCTAAGTGCATTTACTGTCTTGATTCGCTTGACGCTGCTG,67
GACTCATTTCTTAGTGACGTTGGTGACAGGAATATGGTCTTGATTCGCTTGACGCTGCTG,98.3
TGCGCAACAACTTGTCACCCTACTTTATGTCTAGAAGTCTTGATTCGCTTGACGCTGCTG,76.4
GTAGTTTGCATTTTGCACGTTTCCCTTTCCATGCAAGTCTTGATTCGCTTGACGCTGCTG,150

# Set 2
# Target: RNA binding protein fox-1 homolog 2, RRM domain, GST-SBP tag (RBFOX2, Homo sapiens, UniProt O43251-10, residues 100-194)
# Method: RNA Bind-n-Seq
# Molecule type: RNA
# Sample: in vitro
# Concentration: 365 nM
# Notes: natural RNA segment, single round, ends assumed
# Relative to: no-protein control
# Reading: higher = stronger binding
# Target sequence (chain): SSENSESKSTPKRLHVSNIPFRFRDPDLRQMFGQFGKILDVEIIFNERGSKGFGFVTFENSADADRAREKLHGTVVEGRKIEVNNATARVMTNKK
Oligonucleotide,RBNS enrichment (R)
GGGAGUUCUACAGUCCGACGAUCAAAAAAUAUAUAUAUAUAUAUAUAGCUGACUGGAAGAGAUUAAUUUCUUCCCCCAACUUCUUGCAUGUUGAAGAUAUUUGAGCUAUUUUUCAUCUAAAAGAGUAAGGUAUUGGAAUUCUCGGGUGCCAA,12.7
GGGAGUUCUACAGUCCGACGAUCUCAGGGAGCUCUUCUCUGGGGCUGGAACAGUUGAUUAUGCAACCCCAUUGUGUGGAGAUUGGAUCAACUGAGUUGUGUUAUUUUUGUUUUAAGUCACCUUGUGCGAGAACUGGAAUUCUCGGGUGCCAA,1.13
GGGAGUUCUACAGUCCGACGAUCUGAAAUGUUUUUCAAACCAUCCUCUCCUCAGGCCACCACCCCUUACCCUAACCCAUCACGCCCUGGUGAAGCCCCCAAGGCCUGCUGCUUUGGGGUGUGGCCUGUGACUGUGGAAUUCUCGGGUGCCAA,0.229
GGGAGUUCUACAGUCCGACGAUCUUAGAGGGAUGAGAGUUCCCAUUAAGCACUCCAUGCAAUGGCCUCUCACUGUUUAAAGAACACACUUUUGAGAUUAUGUGGUCCUAUCCUUGUUUUAAUGAUUAAAAAAAUGGAAUUCUCGGGUGCCAA,0.588
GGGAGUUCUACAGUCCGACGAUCGACCAAUGUCAAGUUUCAGGUUUUGUGUGCUGCAUAUUUAACUUUUUCACUACCACUGUUAUGUCACUGGGUAAAAGCCUCAAACUGUUAAAUAUAUGGGAGACUGAUUAUGGAAUUCUCGGGUGCCAA,1.06
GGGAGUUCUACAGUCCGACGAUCAAGAAAAUAAAACUGGAAAUUGAAUAUGGGUGGCAUGAUUGUACCCUUUUAGUUCUCUUAUUUUUCUACUCCUCUGUCCCUCUAUAACUAUGCCAUACUAUUAUAUGCUGUGGAAUUCUCGGGUGCCAA,10.7
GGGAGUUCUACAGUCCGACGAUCUAUUCAUUUGCCCCAUCACCUCUGUCUAAAGGCCCAAGUCCUAGGGCUGCCAUGGUCACAAGCACACUGAUGCUCCUUAAGAUUGUUUAUCUGGAGCCCACAUAGUGUGGUGGAAUUCUCGGGUGCCAA,0.316
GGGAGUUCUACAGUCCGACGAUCUGCUCAGUGUGUUGAUACAGAAAAGCUGUUUUUCCUUGUUUGCAGAAGUUGACCAGACAAAGCAAAUGGAGGGGCACCUCUGUGUACCCUCUUCACCUAAGUGUUUAUAAUGGAAUUCUCGGGUGCCAA,0.249
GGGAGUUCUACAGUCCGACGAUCCCAGGUCAUACUGAUGCAAGAAGUGGGUUCCCAUGGUCUUGGGCAGCUCUGCCCCUGUGGCUUUGUAGGGUACAGCCUCCCUCCUGGCUGCUUUCACGGCUGUUGUUCAGUGGAAUUCUCGGGUGCCAA,0.879
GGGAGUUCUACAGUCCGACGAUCUUGCCAACAAGAAUGUGUGGCGCCCCACAUCUCCCUACCUUGCACUCUAGGGCCAGACCACUCUCUGUAUGGACCAGACCAUCUUCCCAAACCCAUGGUGCUUUCCCCCCUGGAAUUCUCGGGUGCCAA,0.541
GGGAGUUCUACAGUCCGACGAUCGCCAUCCCCAUCAGGACCUCAGACCUGGGGUACCUGAACUCUGUCCCUCUGCUGCCGCCUCUGUCUGGAAAUUGGACCAGAAUUCUGAUGUCCCUCCAGCCUCCUCCCCCUGGAAUUCUCGGGUGCCAA,0.43
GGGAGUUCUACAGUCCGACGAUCUACGUGGUUUUUAGGUAGAUGUUCCCAGGUGCCCUCUCUUGAGCUGGGUCUGAGGUUAUCCCUGUCCCCAUGCCCCCUCUGUGCCCCGAGCUCUGUCUCCCCACUCUUGCUGGAAUUCUCGGGUGCCAA,0.64

# Set 3
# Target: Ras GTPase-activating protein-binding protein 1, full length (G3BP1, Homo sapiens, UniProt Q13283)
# Sequence of UniProt Q13283 (whole entry, looked up): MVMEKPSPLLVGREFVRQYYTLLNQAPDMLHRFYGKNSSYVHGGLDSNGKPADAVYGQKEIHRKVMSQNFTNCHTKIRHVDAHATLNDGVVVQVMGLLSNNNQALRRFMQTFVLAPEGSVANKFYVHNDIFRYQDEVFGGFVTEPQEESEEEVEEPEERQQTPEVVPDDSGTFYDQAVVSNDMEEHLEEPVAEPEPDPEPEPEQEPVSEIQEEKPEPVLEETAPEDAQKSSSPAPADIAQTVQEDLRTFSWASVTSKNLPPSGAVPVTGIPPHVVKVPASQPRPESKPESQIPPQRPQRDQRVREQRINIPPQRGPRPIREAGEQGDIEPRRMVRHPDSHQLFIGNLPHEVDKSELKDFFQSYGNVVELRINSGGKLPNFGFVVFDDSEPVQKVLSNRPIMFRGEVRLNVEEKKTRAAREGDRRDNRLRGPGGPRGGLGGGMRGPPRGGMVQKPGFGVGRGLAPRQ
# Method: RNA Bind-n-Seq
# Molecule type: RNA
# Sample: in vitro
# Concentration: 200 nM
# Notes: whole 134-nt RNA, ends assumed
# Together with: 150 mM LiCl
# Relative to: input library
# Reading: higher = stronger binding
# Library: 7-deaza-guanosine replaces G
Oligonucleotide,log2 enrichment
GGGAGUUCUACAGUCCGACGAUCCCUCAAGUCCUGUGCUACACAUCGUAUGUACCGAAUCGGGGAGGAGGGAGGGAAAGUAUUAUGUUACGCCGUUCGGAUCUGCACUUCCAGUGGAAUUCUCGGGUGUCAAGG,0.51
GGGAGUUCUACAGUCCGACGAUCUGGCCCUGGUGGCAUGCGGGGAGGAAGAGGUGGCCUCAUGGAUCGUGGUGGUCCCGGUGUAAUGUUCAGAGGUGGCCGUGGUGGAGACAGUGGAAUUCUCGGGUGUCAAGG,-0.332
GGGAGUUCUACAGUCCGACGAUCUGGCCCUGGUGGCAUGCGGGGAGGAAGAGGUGGCCUCAUGGAUCGUGGUGGUCCCGGUGGAAUGUUCAGAGGUGGACGUGGUGGAGACAGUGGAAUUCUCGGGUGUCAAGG,-0.192
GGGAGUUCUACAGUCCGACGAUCACCAUGCAGGUGGGCAUCUUUGGGAAGUGGGGCAAGGGGGAGAUAGGGAGGGGGGUAACACUUUGGGAACAGGUGGUCCCAGGUCGUUUCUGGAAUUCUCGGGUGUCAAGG,0.425
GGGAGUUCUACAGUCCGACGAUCUGGCCCUGGUGGCAUGCGGGGAGAAAGAGGUGGCCUCAUGGAUCGUGGUGGUCCCGGUGGAAUGUUCAGAGGUGGCCGUGGUGGAGACAGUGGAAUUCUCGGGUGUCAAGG,0.405
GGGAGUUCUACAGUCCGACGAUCUGGCCCUGGUGGCAUGCGGGGAGGAAGAGGUGGCCUCAUGGAUAGUGGUGGUCCCGGUGGAAUGUUCAGAGGUGGCCGUGGUGGAGACAGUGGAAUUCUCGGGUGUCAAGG,0.14
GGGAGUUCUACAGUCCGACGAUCAAGUCCUGUGCUACACAUCGUAUGUACCGAAUCGGGCCCCGGGGCCCCGGGCCCCGGAAAGUAUUAUGUUACGCCGUUCGGAUCUGCACUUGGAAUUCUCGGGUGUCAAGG,-0.567
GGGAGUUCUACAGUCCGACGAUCUCAAGUCCUGUGCUACACAUCGUAUGUACCGAAUCGGCCCGGCCCGGGCCCGGGGAAAGUAUUAUGUUACGCCGUUCGGAUCUGCACUUCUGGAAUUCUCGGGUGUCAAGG,-0.65
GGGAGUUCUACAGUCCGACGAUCCUCAAGUCCUGUGCUACACAUCGUAUGUACCGAAUCGGGUUGGGUUGGGUUGGAAAGUAUUAUGUUACGCCGUUCGGAUCUGCACUUCCAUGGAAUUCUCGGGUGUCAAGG,0.227
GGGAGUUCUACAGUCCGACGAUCCACAGACAACACGCACCCACACAGACACAGAGGCAAGGGGUUGGGAUGGGGACAGGGUGCACAGCAGGGCGGGGUAGGACCCCAGCCCCUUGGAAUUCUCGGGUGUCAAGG,0.815
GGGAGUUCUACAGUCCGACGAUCCCUCAAGUCCUGUGCUACACAUCGUAUGUACCGAAUCGGGUUGGUUGGUUGGAAAGUAUUAUGUUACGCCGUUCGGAUCUGCACUUCCAGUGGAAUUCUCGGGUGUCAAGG,-0.194

# Set 4
# Target: Interferon regulatory factor 7, full length, phosphomimetic (IRF7, Homo sapiens, UniProt Q92985, residues 1-503, S471D/S472D/S475D/S476D/S477D/S483D/S484D/S487D)
# Method: protein-binding microarray
# Molecule type: double-stranded DNA, one strand shown
# Sample: in vitro
# Concentration: 2200 nM top
# Notes: 60-bp whole probe
# Together with: salmon DNA 0.4 mg/ml
# Relative to: random background probes
# Reading: higher = stronger binding
# All sequences stand within: GCCTAGCAC … GTCTTGATTCGCTTGACGCTGCTG
# Target sequence (chain): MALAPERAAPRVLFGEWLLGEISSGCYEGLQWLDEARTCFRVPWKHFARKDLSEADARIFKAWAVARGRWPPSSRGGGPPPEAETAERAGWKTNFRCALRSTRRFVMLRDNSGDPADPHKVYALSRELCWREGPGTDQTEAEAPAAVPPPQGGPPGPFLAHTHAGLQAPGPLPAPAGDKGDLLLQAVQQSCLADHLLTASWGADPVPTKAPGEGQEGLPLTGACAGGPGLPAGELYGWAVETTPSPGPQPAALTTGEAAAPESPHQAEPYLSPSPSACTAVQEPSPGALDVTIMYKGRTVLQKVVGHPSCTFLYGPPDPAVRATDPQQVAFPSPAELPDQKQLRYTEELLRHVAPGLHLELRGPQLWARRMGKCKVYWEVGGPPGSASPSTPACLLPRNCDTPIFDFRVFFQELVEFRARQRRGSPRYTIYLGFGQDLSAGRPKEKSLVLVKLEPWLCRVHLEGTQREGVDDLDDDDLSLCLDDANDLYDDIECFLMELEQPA
Oligonucleotide,fitted relative affinity [z-score]
TTAGGTATCGACCCTGGGTTAGTGCTA,-0.364
TCAGTTTCTCCTTTGTAACTGTGCTAG,4.14
TTAGAACTGAGTATGGATTAGTGCTAG,-0.372
TCACATTTTTTTATCAAACTGTGCTAG,1.07
TTAGGTATCCTTATCCTCTAGTGCTAG,0.948
CCAGGGACAAAGCGGTGCGAGTGCTAG,-1.3
GATGAACTGGGGTATCGAGACGTGCTA,0.096
TTGGGACTGGACTTTCGGTTAGTGCTA,4.74
TTAGGTTTCAGTTTCGGTTAGTGCTAG,11.5
TATCAGTAGGTAAGGAAAAGGTGCTAG,-0.595

# Set 5
# Target: Sal-like protein 4, full length isoform B (SALL4, Homo sapiens, UniProt Q9UJQ4-2, residues 1-616)
# Method: universal PBM
# Molecule type: double-stranded DNA, one strand shown
# Sample: in vitro
# Concentration: not given
# Notes: 8-mer, flanks averaged, mean of replicates
# Reading: higher = stronger binding
Oligonucleotide,E-score
GGTCGTTA,-0.0447
ACTCAAGT,0.0795
AATACCTC,0.111
AGTTAAAA,0.248
CTGGATAC,-0.0434
CATTCTAA,0.138
AACCGATA,0.115
AACGTTAC,0.115
AACACTCA,-0.0213
GGTTGCAC,-0.212
